Measured values gathered from unrelated publications.
± gives the spread as reported.
Chain of UniProt P08183 (whole entry, looked up): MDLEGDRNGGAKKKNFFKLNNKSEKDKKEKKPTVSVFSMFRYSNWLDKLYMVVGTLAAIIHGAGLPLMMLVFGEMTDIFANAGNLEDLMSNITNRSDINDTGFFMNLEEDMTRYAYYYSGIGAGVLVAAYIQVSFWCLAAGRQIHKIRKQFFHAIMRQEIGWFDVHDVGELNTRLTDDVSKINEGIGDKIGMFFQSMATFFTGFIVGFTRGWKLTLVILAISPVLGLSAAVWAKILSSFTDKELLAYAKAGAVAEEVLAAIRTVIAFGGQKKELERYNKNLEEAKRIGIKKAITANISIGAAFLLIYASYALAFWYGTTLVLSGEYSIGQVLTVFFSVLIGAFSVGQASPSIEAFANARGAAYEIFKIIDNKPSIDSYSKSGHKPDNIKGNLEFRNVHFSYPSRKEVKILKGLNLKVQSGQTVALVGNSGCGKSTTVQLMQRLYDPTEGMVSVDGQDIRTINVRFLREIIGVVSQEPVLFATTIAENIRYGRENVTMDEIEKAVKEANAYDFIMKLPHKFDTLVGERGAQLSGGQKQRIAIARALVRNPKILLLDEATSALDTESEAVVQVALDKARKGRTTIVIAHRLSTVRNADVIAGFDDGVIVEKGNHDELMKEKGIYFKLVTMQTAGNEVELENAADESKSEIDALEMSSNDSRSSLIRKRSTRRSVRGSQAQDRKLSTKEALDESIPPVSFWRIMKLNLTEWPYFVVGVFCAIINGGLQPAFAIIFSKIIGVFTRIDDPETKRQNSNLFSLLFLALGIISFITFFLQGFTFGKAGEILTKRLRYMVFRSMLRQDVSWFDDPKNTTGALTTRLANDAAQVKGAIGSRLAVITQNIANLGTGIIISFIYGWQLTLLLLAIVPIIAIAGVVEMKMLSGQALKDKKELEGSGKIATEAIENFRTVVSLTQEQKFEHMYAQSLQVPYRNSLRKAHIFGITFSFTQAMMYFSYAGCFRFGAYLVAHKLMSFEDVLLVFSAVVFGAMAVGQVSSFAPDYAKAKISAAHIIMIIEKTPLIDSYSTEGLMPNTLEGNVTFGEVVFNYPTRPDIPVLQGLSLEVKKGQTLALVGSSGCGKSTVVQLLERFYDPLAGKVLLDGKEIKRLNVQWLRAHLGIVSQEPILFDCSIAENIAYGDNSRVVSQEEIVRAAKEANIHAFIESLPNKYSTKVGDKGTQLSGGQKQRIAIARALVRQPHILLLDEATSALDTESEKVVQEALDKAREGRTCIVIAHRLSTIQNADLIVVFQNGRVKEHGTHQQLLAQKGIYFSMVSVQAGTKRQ
Chain of UniProt Q12809 (whole entry, looked up): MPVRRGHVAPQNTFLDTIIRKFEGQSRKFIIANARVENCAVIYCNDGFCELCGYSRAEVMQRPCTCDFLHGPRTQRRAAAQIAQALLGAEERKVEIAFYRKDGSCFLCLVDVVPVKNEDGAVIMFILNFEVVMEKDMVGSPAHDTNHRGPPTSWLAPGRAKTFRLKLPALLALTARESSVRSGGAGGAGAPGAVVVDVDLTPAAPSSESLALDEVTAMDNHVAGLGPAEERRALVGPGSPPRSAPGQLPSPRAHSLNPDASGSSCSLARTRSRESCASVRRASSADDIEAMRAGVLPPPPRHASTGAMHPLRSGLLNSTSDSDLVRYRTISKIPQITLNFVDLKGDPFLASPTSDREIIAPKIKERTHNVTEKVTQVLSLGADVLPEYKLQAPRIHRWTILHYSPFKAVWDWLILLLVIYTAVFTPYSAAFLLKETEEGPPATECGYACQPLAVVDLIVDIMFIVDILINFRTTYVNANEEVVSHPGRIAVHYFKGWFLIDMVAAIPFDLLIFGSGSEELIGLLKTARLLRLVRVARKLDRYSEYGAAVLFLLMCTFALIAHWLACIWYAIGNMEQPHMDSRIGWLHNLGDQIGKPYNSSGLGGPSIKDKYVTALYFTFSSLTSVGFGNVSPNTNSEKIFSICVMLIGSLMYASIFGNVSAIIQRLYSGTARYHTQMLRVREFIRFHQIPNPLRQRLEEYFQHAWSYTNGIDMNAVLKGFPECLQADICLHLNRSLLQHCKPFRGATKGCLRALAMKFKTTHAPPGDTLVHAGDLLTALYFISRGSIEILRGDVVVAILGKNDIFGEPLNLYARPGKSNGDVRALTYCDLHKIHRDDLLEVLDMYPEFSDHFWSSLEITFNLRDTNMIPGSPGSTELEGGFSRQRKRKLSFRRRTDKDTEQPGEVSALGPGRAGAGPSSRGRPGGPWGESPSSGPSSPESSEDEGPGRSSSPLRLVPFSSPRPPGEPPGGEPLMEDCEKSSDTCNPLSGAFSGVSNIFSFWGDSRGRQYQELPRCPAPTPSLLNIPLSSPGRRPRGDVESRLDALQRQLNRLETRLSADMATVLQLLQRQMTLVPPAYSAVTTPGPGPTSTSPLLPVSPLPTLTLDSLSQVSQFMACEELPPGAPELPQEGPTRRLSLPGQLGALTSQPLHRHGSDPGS

SMILES | target or system | test | system | conditions | scale | measurement | result
CC(C)(C)[C@H](NC(=O)C(F)(F)F)C(=O)N1C[C@H]2[C@@H]([C@H]1C(=O)N[C@H](C#N)C[C@@H]1CCNC1=O)C2(C)C | – | – | human, fasted | oral, 150 mg single dose, 28 days, no ritonavir | – | participants with severe adverse events | 0%
CC(C)C[C@H](NC(=O)CNC(=O)[C@H](CC(C)C)NC(=O)[C@H](CC(C)C)NC(=O)[C@H](CCCCN)NC(=O)[C@H](CCCCN)NC(=O)[C@H](CC(C)C)NC(=O)[C@H](CCCCN)NC(=O)[C@H](CC(C)C)NC(=O)[C@H](CC(C)C)NC(=O)[C@@H](N)CCCCN)C(=O)N[C@@H](CC(C)C)C(=O)N[C@@H](CCCCN)C(=O)O | HEK-293T | cell death | – | 24 h, 10% cell death | – | lowest cytotoxic concentration | 256 µg/mL
COc1ccc2c3c([nH]c2c1)[C@H](C=C(C)C)N1C(=O)[C@@H]2CCCN2C(=O)[C@@H]1C3 | ABCB1 (Homo sapiens, UniProt P08183) | JC-1 efflux, inhibitor | Jurkat-DNR | – | – | IC50 | inactive
Cn1cnc(Cn2c(=O)[nH]/c(=N\c3cc4cn(C)nc4cc3Cl)n(Cc3cc(F)c(F)cc3F)c2=O)n1 | – | – | human, mild renal impairment | oral, 375 mg | – | treatment-related TEAE, Mild severity | 12.5%
CC(C)=CCC[C@](C)(O[C@@H]1O[C@H](CO)[C@@H](O)[C@H](O)[C@H]1O)[C@H]1CC[C@]2(C)[C@@H]1[C@H](O)C[C@@H]1[C@@]3(C)CC[C@H](O[C@@H]4O[C@H](CO)[C@@H](O)[C@H](O)[C@H]4O)C(C)(C)[C@@H]3CC[C@]12C | Spike glycoprotein (Severe acute respiratory syndrome coronavirus 2, UniProt P0DTC2) | binding, biolayer interferometry | – | – | – | Kd | 27.1 µM
CN(C)c1ccc(N(Cc2cc(Cl)cs2)C(=O)Cc2cncc3ccccc23)cc1 | SARS-CoV-2 | – | Caco-2, Omicron XBB.1.5 | – | baseline: CC50 over EC50 | selectivity index | 257
CC[C@H](C)[C@H](NC(=O)[C@H](CC(C)C)NC(=O)[C@H](Cc1c[nH]c2ccccc12)NC(=O)[C@H](CCC(N)=O)NC(=O)[C@@H](NC(=O)[C@H](Cc1ccccc1)NC(=O)[C@H](C)NC(=O)[C@H](CCCCNC(=O)COCCOCCNC(=O)COCCOCCNC(=O)CC[C@H](NC(=O)CCCCCCCCCCCCCCCCCCC(=O)O)C(=O)O)NC(=O)[C@H](CCC(N)=O)NC(=O)[C@H](C)NC(=O)[C@@H](NC(=O)[C@H](CCCCN)NC(=O)[C@H](CC(=O)O)NC(=O)[C@H](CC(C)C)NC(=O)C(C)(C)NC(=O)[C@@H](NC(=O)[C@H](CO)NC(=O)[C@H](Cc1ccc(O)cc1)NC(=O)[C@H](CC(=O)O)NC(=O)[C@H](CO)NC(=O)[C@@H](NC(=O)[C@H](Cc1ccccc1)NC(=O)[C@@H](NC(=O)CNC(=O)[C@H](CCC(=O)O)NC(=O)C(C)(C)NC(=O)[C@@H](N)Cc1ccc(O)cc1)[C@@H](C)O)[C@@H](C)O)[C@@H](C)CC)[C@@H](C)CC)C(C)C)C(=O)N[C@@H](C)C(=O)NCC(=O)NCC(=O)N1CCC[C@H]1C(=O)N[C@@H](CO)C(=O)N[C@@H](CO)C(=O)NCC(=O)N[C@@H](C)C(=O)N1CCC[C@H]1C(=O)N1CCC[C@H]1C(=O)N1CCC[C@H]1C(=O)N[C@@H](CO)C(N)=O | – | – | healthy human | 8.0 mg, single ascending dose | – | injection site reaction | 0%
CC(=O)c1c(O)c(C)c(O)c(Cc2c(O)c3c(c(C(=O)/C=C/c4ccccc4)c2O)OC(C)(C)C=C3)c1O | KCNH2 (Homo sapiens, UniProt Q12809) | ion current, whole-cell patch clamp | HEK293 expressing hERG1 | 15 µM, at -120 mV | – | fast deactivation time constant | 57 ± 5 ms
CNC(=O)[C@@H](NC(=O)[C@H](CC(C)C)[C@H](O)C(=O)NO)C(C)(C)C | Daboia russelii venom proteases (SVMP) | protease activity, inhibitor | KL population | 100 µM, added: azocasein substrate | baseline: venom alone | remaining activity | 0%
CC[C@H](C)[C@H](NC(=O)[C@H](C)NC(=O)[C@H](CCC(=O)O)NC(=O)[C@H](CCC(=O)O)NC(=O)[C@H](CC(C)C)NC(=O)[C@H](CCCCN)NC(=O)[C@H](CCCCN)NC(=O)[C@H](CCSC)NC(=O)[C@H](CCC(=O)O)NC(=O)[C@H](Cc1ccc(O)cc1)NC(=O)[C@H](CCC(=O)O)NC(=O)[C@H](CC(C)C)NC(=O)[C@H](CC(=O)O)NC(=O)[C@H](CC(C)C)NC(=O)[C@H](Cc1ccccc1)NC(=O)[C@@H](NC(=O)[C@@H](NC(=O)[C@H](CC(N)=O)NC(=O)[C@@H](NC(=O)[C@H](CCC(N)=O)NC(=O)[C@H](CC(=O)O)NC(=O)[C@H](CC(C)C)NC(=O)[C@@H](N)CO)[C@@H](C)CC)C(C)C)[C@@H](C)O)C(=O)N[C@@H](CCCCN)C(=O)N[C@@H](CCCCN)C(=O)N[C@@H](CC(C)C)C(=O)N[C@@H](CCC(=O)O)C(=O)N[C@@H](CCC(=O)O)C(=O)N[C@@H](CO)C(=O)N[C@@H](Cc1ccc(O)cc1)C(=O)N[C@H](C(=O)N[C@@H](CC(=O)O)C(=O)N[C@@H](CC(C)C)C(=O)N[C@@H](CCCCN)C(=O)N[C@@H](CCC(=O)O)C(=O)N[C@@H](CC(C)C)C(=O)NCC(=O)N[C@@H](CO)C(=O)NCC(=O)N[C@@H](CO)C(=O)NCC(=O)NCCOCCOCCOCCOCCC(=O)N[C@@H](CSCC(=O)O[C@H]1CC[C@@]2(C)C(=CC[C@H]3[C@@H]4CC[C@H]([C@H](C)CCCC(C)C)[C@@]4(C)CC[C@@H]32)C1)C(N)=O)[C@@H](C)CC | SARS-CoV-2 | pseudovirus infection | – | concentration not given, 37 °C, storage | – | fold reduction of activity | ~92 fold
Nc1ncnc2c([C@@H]3N[C@H](CO)[C@@H](O)[C@H]3O)c[nH]c12 | Marburg virus | surface glycoprotein expression | HeLa, Musoke | 100 µM, 24 h | – | inhibition | 70.8%
CC[C@H](C)[C@H](NC(=O)[C@H](CC(C)C)NC(=O)[C@H](Cc1c[nH]c2ccccc12)NC(=O)[C@H](CCC(N)=O)NC(=O)[C@@H](NC(=O)[C@H](Cc1ccccc1)NC(=O)[C@H](C)NC(=O)[C@H](CCCCNC(=O)COCCOCCNC(=O)COCCOCCNC(=O)CC[C@H](NC(=O)CCCCCCCCCCCCCCCCCCC(=O)O)C(=O)O)NC(=O)[C@H](CCC(N)=O)NC(=O)[C@H](C)NC(=O)[C@@H](NC(=O)[C@H](CCCCN)NC(=O)[C@H](CC(=O)O)NC(=O)[C@H](CC(C)C)NC(=O)C(C)(C)NC(=O)[C@@H](NC(=O)[C@H](CO)NC(=O)[C@H](Cc1ccc(O)cc1)NC(=O)[C@H](CC(=O)O)NC(=O)[C@H](CO)NC(=O)[C@@H](NC(=O)[C@H](Cc1ccccc1)NC(=O)[C@@H](NC(=O)CNC(=O)[C@H](CCC(=O)O)NC(=O)C(C)(C)NC(=O)[C@@H](N)Cc1ccc(O)cc1)[C@@H](C)O)[C@@H](C)O)[C@@H](C)CC)[C@@H](C)CC)C(C)C)C(=O)N[C@@H](C)C(=O)NCC(=O)NCC(=O)N1CCC[C@H]1C(=O)N[C@@H](CO)C(=O)N[C@@H](CO)C(=O)NCC(=O)N[C@@H](C)C(=O)N1CCC[C@H]1C(=O)N1CCC[C@H]1C(=O)N1CCC[C@H]1C(=O)N[C@@H](CO)C(N)=O | – | – | human, plasma | sc, 5.0 mg once weekly, week 7, median | – | Tmax | 24 h

Some of these lines once more:
SMILES | target or system | test | system | conditions | scale | measurement | result
CC[C@H](C)[C@H](NC(=O)[C@H](CC(C)C)NC(=O)[C@H](Cc1c[nH]c2ccccc12)NC(=O)[C@H](CCC(N)=O)NC(=O)[C@@H](NC(=O)[C@H](Cc1ccccc1)NC(=O)[C@H](C)NC(=O)[C@H](CCCCNC(=O)COCCOCCNC(=O)COCCOCCNC(=O)CC[C@H](NC(=O)CCCCCCCCCCCCCCCCCCC(=O)O)C(=O)O)NC(=O)[C@H](CCC(N)=O)NC(=O)[C@H](C)NC(=O)[C@@H](NC(=O)[C@H](CCCCN)NC(=O)[C@H](CC(=O)O)NC(=O)[C@H](CC(C)C)NC(=O)C(C)(C)NC(=O)[C@@H](NC(=O)[C@H](CO)NC(=O)[C@H](Cc1ccc(O)cc1)NC(=O)[C@H](CC(=O)O)NC(=O)[C@H](CO)NC(=O)[C@@H](NC(=O)[C@H](Cc1ccccc1)NC(=O)[C@@H](NC(=O)CNC(=O)[C@H](CCC(=O)O)NC(=O)C(C)(C)NC(=O)[C@@H](N)Cc1ccc(O)cc1)[C@@H](C)O)[C@@H](C)O)[C@@H](C)CC)[C@@H](C)CC)C(C)C)C(=O)N[C@@H](C)C(=O)NCC(=O)NCC(=O)N1CCC[C@H]1C(=O)N[C@@H](CO)C(=O)N[C@@H](CO)C(=O)NCC(=O)N[C@@H](C)C(=O)N1CCC[C@H]1C(=O)N1CCC[C@H]1C(=O)N1CCC[C@H]1C(=O)N[C@@H](CO)C(N)=O | – | – | human, plasma | sc, 5.0 mg once weekly, week 7, median | – | Tmax | 24 h
